{"data": "Results from different studies", "note": "Each line is one published result; not all experiments were run side by side. ± marks the error that the study gave."}
{"SMILES": "COc1cc2ncnc(Nc3ccc(F)c(Cl)c3)c2cc1OCCCN1CCOCC1", "system": "human, plasma", "setting": "oral, 250 mg, added: vorinostat 400 mg", "half-life": "25.2 ± 11.4 h"}
{"SMILES": "CS(=O)(=O)CCNCc1ccc(-c2ccc3ncnc(Nc4ccc(OCc5cccc(F)c5)c(Cl)c4)c3c2)o1", "system": "human, plasma", "setting": "oral, single dose", "half-life": "10.3 h"}
{"SMILES": "COCCCCn1c(C(=O)N(CC(C)C)[C@@H]2CNC[C@H](C(=O)N3CCOCC3)C2)nc2ccccc21", "system": "human, elderly, plasma", "setting": "oral, 80 mg once daily, day 1, mean", "half-life": "11.2 h"}
{"SMILES": "CN1C(=O)[C@@H](NC(=O)c2nnc(Cc3ccccc3)[nH]2)COc2ccccc21", "system": "human male, plasma", "setting": "oral, 120 mg twice daily, day 1", "half-life": "2.13 h"}
{"SMILES": "CCCCC1(CCCC)CN(c2ccccc2)c2cc(SC)c(OCC(=O)N[C@@H](C(=O)NCC(=O)O)c3ccccc3)cc2S(=O)(=O)C1", "assay": "LC-MS/MS", "system": "human, plasma", "setting": "oral, 5 mg, single dose, fasted", "half-life": "3.94 h"}
{"SMILES": "CC(=O)c1c(C)c2cnc(Nc3ccc(N4CCNCC4)cn3)nc2n(C2CCCC2)c1=O", "system": "human", "setting": "oral, 75 mg/m^2 single dose, day 1", "half-life": "16.6 ± 9 h"}
{"SMILES": "COc1cc(N2CCC(N3CCN(C)CC3)CC2)ccc1Nc1ncc(Cl)c(Nc2ccccc2P(C)(C)=O)n1", "system": "healthy humans, plasma", "setting": "oral, 90 mg, added: itraconazole 200 mg twice daily", "half-life": "44.9 h"}
{"SMILES": "Nc1ccc(-c2nc([C@H]3CCc4cc(-c5cc(Cl)ccc5-n5cnnn5)cc(=O)n43)c(F)[nH]2)c(F)n1", "system": "human, plasma", "setting": "oral, 80 mg once daily, day 14, fed", "half-life": "27.9 h"}
{"SMILES": "Cc1[nH]c(/C=C2\\C(=O)Nc3ccccc32)c(C)c1CCC(=O)O", "system": "human patients", "setting": "oral, 200 mg/m^2 twice daily, after meal, dose 55", "half-life": "3.45 ± 0.983 h"}
{"SMILES": "O=C(/C=C/c1cccc(S(=O)(=O)Nc2ccccc2)c1)NO[C@@H]1O[C@H](C(=O)O)[C@@H](O)[C@H](O)[C@H]1O", "system": "human moderate liver dysfunction, plasma", "setting": "intravenous, 400 mg/m^2, 30 min infusion, cycle 1 day -7, added: belinostat 400 mg/m^2 iv", "half-life": "3.97 h"}
{"SMILES": "CO[C@H]1C[C@@H]2CC[C@@H](C)[C@@](O)(O2)C(=O)C(=O)N2CCCC[C@H]2C(=O)O[C@H]([C@H](C)C[C@@H]2CC[C@@H](OCCO)[C@H](OC)C2)CC(=O)[C@H](C)/C=C(\\C)[C@@H](O)[C@@H](OC)C(=O)[C@H](C)C[C@H](C)/C=C/C=C/C=C/1C", "system": "healthy adult human, blood", "setting": "0.75 mg single dose, harmonic mean, compound alone", "half-life": "42.4 h"}
{"SMILES": "Cc1c(Cl)c(C)[n+]([O-])c(Cl)c1-c1noc(-c2cc(O)c(O)c([N+](=O)[O-])c2)n1", "assay": "LC-MS/MS", "system": "healthy male human, fasted, plasma", "setting": "oral, 50 mg single dose, tablet", "half-life": "1.42 ± 0.664 h"}
{"SMILES": "CN(Cc1nc2c(N)nc(N)nc2[nH]c1=O)c1ccc(C(=O)N[C@@H](CCC(=O)O)C(=O)O)cc1", "system": "human, plasma", "setting": "oral, 15 mg methotrexate, day 1, alone, arithmetic mean", "half-life": "12 h"}
{"SMILES": "CN1CCN(c2ccc3nc(-c4c(N)c5c(F)cccc5[nH]c4=O)[nH]c3c2)CC1", "system": "human, plasma", "setting": "oral, 300 mg, day 1, median, added: gemcitabine and capecitabine", "half-life": "15.3 h"}
{"SMILES": "O=C(CCCCCCC(=O)Nc1ccccc1)NO", "system": "human, serum", "setting": "oral, 600 mg twice daily", "half-life": "1.5 h"}
{"SMILES": "O=C(c1cccnc1-c1ccncc1)N1CCC(O)(Cc2ccccc2)CC1", "system": "healthy human, plasma", "setting": "oral, 100 mg once daily, day 1, arithmetic mean", "half-life": "3.91 h"}
{"SMILES": "CC(C)[C@H](N)C(=O)NCCCS(=O)(=O)O", "system": "human, both sexes, plasma", "setting": "oral, 300 mg capsule", "half-life": "0.81 ± 0.13 h"}
{"SMILES": "NC(=O)N1CCC(CC(=O)N2CCC([C@H]3c4ncc(Br)cc4CCc4cc(Cl)cc(Br)c43)CC2)CC1", "system": "human, plasma", "setting": "oral, 150 mg twice daily, cycle 2 day 15, multiple dose, added: gemcitabine 750 mg/m2", "half-life": "6.68 h"}
{"SMILES": "CC(C)(C)OC[C@@H]1C(=O)NCCN1C(=O)C[C@H](N)Cc1cc(F)c(F)cc1F", "system": "human", "setting": "20 mg once daily, day 10, steady state", "half-life": "38.8 ± 5.7 h"}
{"note": "Excerpt of the above:"}
{"SMILES": "CO[C@H]1C[C@@H]2CC[C@@H](C)[C@@](O)(O2)C(=O)C(=O)N2CCCC[C@H]2C(=O)O[C@H]([C@H](C)C[C@@H]2CC[C@@H](OCCO)[C@H](OC)C2)CC(=O)[C@H](C)/C=C(\\C)[C@@H](O)[C@@H](OC)C(=O)[C@H](C)C[C@H](C)/C=C/C=C/C=C/1C", "system": "healthy adult human, blood", "setting": "0.75 mg single dose, harmonic mean, compound alone", "half-life": "42.4 h"}
{"SMILES": "CC(=O)c1c(C)c2cnc(Nc3ccc(N4CCNCC4)cn3)nc2n(C2CCCC2)c1=O", "system": "human", "setting": "oral, 75 mg/m^2 single dose, day 1", "half-life": "16.6 ± 9 h"}
{"SMILES": "COc1cc(N2CCC(N3CCN(C)CC3)CC2)ccc1Nc1ncc(Cl)c(Nc2ccccc2P(C)(C)=O)n1", "system": "healthy humans, plasma", "setting": "oral, 90 mg, added: itraconazole 200 mg twice daily", "half-life": "44.9 h"}
